{"data": "Published values pooled from the literature", "note": "Parts stem from different laboratories: compare values within a part only. Values joined by “and” are separate records of one study, mostly repeats; a detail may differ.", "UniProt O96017, sequence (whole entry, looked up)": "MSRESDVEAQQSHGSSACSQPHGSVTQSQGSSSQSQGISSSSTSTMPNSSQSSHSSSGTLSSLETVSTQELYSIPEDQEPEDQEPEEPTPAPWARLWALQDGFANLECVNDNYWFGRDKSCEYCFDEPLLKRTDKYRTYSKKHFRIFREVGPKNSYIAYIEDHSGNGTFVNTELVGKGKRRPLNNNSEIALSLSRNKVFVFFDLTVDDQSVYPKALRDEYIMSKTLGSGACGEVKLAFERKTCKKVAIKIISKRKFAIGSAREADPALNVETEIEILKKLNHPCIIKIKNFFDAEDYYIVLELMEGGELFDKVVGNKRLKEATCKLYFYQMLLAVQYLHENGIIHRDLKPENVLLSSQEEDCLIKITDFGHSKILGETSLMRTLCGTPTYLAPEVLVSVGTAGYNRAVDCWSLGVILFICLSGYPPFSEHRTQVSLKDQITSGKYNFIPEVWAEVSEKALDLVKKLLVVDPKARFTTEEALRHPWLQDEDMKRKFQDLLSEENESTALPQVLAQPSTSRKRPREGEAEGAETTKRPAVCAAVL", "UniProt P35626, sequence (whole entry, looked up)": "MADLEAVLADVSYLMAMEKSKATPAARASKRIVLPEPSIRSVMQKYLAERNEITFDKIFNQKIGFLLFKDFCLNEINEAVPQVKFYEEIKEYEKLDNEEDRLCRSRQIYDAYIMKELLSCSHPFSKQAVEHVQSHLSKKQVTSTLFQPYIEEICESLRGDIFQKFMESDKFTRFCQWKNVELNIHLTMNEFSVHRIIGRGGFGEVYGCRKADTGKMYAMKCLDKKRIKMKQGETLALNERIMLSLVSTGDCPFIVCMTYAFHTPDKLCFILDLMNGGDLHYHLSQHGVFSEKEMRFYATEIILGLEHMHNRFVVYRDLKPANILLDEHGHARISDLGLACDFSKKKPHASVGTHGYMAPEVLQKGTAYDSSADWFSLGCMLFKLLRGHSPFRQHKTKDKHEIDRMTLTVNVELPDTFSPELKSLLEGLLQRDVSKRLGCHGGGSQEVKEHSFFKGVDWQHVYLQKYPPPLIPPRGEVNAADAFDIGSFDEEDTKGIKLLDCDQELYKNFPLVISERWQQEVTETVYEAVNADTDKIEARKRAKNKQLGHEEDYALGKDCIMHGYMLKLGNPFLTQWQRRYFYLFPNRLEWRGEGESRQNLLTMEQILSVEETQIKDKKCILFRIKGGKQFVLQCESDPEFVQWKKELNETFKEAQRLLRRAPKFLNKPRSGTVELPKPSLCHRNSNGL", "UniProt Q14164, sequence (whole entry, looked up)": "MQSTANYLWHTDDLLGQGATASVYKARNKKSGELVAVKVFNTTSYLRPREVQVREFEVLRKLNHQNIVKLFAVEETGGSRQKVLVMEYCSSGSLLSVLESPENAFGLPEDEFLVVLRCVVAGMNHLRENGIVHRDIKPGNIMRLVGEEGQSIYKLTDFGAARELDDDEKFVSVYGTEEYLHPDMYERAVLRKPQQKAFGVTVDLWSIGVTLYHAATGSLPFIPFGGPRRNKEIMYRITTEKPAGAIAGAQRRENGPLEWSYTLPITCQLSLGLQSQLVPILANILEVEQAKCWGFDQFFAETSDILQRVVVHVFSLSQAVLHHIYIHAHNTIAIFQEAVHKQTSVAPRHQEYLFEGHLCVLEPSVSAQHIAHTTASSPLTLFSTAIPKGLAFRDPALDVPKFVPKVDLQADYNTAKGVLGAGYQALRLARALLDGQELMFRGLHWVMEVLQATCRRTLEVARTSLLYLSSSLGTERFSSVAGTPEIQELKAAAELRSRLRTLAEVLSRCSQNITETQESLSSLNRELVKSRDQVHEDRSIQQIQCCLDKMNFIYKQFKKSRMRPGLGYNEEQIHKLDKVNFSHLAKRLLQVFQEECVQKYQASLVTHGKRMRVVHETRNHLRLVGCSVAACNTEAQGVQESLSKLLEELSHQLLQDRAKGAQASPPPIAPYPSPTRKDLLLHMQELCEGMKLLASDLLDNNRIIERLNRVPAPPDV", "UniProt O94804, sequence (whole entry, looked up)": "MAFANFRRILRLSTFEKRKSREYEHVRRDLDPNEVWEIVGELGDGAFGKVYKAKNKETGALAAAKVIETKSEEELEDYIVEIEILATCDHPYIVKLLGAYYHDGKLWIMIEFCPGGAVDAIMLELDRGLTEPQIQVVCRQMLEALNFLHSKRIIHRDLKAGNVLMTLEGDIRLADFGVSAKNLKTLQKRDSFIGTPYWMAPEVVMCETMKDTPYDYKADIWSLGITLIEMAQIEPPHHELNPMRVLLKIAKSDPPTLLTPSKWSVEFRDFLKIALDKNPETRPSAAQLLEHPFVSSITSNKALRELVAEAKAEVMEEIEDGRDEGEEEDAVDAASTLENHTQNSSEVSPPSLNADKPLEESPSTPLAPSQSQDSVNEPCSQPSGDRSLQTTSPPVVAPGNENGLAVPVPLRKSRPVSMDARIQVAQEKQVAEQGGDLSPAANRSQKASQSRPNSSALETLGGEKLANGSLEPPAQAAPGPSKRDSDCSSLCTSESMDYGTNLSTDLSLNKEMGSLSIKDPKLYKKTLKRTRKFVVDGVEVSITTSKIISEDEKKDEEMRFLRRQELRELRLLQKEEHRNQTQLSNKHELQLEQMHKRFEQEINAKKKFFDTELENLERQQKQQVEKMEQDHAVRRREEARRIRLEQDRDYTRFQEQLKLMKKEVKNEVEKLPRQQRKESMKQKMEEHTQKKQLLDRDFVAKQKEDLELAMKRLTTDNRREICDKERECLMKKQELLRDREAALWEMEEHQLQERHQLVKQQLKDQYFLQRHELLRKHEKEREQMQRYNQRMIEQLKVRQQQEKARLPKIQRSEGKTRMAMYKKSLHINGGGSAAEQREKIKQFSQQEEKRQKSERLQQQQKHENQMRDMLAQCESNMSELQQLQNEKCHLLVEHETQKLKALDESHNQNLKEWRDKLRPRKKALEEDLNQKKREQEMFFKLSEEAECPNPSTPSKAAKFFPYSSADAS", "UniProt Q13188, sequence (whole entry, looked up)": "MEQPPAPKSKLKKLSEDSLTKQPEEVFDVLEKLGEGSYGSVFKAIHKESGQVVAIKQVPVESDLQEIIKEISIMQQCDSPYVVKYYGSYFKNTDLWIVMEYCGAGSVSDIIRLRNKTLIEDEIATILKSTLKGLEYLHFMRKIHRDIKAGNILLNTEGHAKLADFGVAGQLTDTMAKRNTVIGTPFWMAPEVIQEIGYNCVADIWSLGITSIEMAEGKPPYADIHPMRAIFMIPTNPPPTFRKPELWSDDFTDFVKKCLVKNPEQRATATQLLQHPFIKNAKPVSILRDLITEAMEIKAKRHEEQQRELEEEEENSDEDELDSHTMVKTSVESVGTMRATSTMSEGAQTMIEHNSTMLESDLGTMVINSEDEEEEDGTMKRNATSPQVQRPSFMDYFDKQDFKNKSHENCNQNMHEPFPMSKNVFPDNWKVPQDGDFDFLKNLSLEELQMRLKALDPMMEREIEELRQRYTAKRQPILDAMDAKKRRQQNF", "UniProt O95747, sequence (whole entry, looked up)": "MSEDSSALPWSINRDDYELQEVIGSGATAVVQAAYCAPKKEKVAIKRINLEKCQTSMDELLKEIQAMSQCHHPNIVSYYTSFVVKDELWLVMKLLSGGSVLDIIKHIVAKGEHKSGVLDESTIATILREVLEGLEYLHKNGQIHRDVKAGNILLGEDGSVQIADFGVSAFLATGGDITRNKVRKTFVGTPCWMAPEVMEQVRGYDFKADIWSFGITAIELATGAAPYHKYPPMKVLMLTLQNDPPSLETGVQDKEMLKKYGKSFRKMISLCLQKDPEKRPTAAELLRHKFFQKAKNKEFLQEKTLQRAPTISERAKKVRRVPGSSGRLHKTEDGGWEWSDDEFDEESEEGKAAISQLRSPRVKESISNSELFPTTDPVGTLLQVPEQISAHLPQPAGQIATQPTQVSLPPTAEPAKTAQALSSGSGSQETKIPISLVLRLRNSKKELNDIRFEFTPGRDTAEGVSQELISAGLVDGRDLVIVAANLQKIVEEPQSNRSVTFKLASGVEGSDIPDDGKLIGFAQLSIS", "UniProt P07948, sequence (whole entry, looked up)": "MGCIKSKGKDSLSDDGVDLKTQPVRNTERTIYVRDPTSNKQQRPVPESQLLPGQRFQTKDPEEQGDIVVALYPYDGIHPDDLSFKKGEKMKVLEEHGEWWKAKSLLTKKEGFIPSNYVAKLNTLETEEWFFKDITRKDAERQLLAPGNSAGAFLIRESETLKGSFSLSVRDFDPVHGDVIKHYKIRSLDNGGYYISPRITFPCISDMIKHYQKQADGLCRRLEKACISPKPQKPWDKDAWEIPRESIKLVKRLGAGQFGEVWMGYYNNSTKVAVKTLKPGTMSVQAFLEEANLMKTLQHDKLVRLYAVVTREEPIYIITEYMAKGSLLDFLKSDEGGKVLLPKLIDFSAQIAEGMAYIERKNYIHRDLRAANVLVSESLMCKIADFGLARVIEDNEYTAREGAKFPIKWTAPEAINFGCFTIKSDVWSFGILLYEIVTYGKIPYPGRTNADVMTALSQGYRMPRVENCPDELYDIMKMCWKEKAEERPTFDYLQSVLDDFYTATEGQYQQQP", "UniProt P36897, sequence (whole entry, looked up)": "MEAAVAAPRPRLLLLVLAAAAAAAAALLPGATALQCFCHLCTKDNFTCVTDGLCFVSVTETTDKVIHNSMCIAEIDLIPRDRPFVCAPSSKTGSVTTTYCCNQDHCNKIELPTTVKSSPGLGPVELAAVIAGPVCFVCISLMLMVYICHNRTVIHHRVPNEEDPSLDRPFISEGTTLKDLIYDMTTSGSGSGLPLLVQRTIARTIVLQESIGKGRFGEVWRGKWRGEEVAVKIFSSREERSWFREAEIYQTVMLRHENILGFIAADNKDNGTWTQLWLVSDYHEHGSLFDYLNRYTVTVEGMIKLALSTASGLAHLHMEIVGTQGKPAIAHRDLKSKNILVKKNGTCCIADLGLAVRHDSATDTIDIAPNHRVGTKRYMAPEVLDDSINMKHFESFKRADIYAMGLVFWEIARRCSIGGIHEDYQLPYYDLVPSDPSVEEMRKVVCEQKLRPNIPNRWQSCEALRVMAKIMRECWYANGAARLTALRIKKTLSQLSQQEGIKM"}
{"data": "Series 1", "cell line": "Huh-7", "tested at": "10 µM", "time": "24 h"}
{"SMILES": "COc1cc(C(=O)N2CCOCC2)cc(OC)c1OC", "viability [%]": 103}
{"SMILES": "CN(C)CCC(c1ccc(Br)cc1)c1ccccn1 (stereo not shown)", "viability [%]": 99.3}
{"SMILES": "CCCOc1ccc2nc(NC(=O)OC)[nH]c2c1", "viability [%]": 62.1}
{"SMILES": "O=c1[nH]cc(F)c(=O)[nH]1", "viability [%]": 64.7}
{"SMILES": "CS(=O)(=O)c1ccc([C@@H](O)[C@@H](CF)NC(=O)C(Cl)Cl)cc1", "viability [%]": 97.5}
{"data": "Series 2", "Structure (SMILES)": "CC(C)[C@H](CO)Nc1nc(Nc2cc(N)cc(Cl)c2)c2ncn(C(C)C)c2n1", "effect on": "enzyme activity", "mode": "inhibitor", "tested at": "0.5 µM", "reference": "control"}
{"target": "cGMP-dependent protein kinase 1, isoform beta (PRKG1, Homo sapiens, UniProt Q13976)", "remaining activity [%]": 102}
{"target": "PRKCA (Homo sapiens, UniProt P17252)", "remaining activity [%]": 66.1}
{"target": "GRK3 (Homo sapiens, UniProt P35626)", "remaining activity [%]": 97.1}
{"target": "STK39 (Homo sapiens, UniProt Q9UEW8)", "remaining activity [%]": 83.7}
{"target": "STK10 (Homo sapiens, UniProt O94804)", "remaining activity [%]": 55.6}
{"target": "MAPK9 (Homo sapiens, UniProt P45984)", "remaining activity [%]": 99.8}
{"target": "PRKACA (Homo sapiens, UniProt P17612)", "remaining activity [%]": 101}
{"target": "Tyrosine-protein kinase Lyn, isoform B (LYN, Homo sapiens, UniProt P07948)", "remaining activity [%]": 85.7}
{"target": "CHEK2 (Homo sapiens, UniProt O96017)", "remaining activity [%]": 96.3}
{"target": "OXSR1 (Homo sapiens, UniProt O95747)", "remaining activity [%]": 100}
{"target": "DAPK1 (Homo sapiens, UniProt P53355)", "remaining activity [%]": 95.3}
{"target": "NEK2 (Homo sapiens, UniProt P51955)", "remaining activity [%]": 94.4}
{"target": "TGFBR1 (Homo sapiens, UniProt P36897)", "remaining activity [%]": 103}
{"target": "CAMK2D (Homo sapiens, UniProt Q13557)", "remaining activity [%]": 87.3}
{"target": "IKBKE (Homo sapiens, UniProt Q14164)", "remaining activity [%]": 88.4}
{"data": "Series 3", "Compound": "NS(=O)(=O)c1cc(NC(=O)Cc2ccccc2)ccc1Oc1cccc(Cl)c1", "effect on": "cell-free assay", "technique": "competition with immobilised ligand", "tested at": "1 µM"}
{"target": "SGK3 (Homo sapiens, UniProt Q96BR1)", "remaining binding [%]": 83}
{"target": "ERBB3 (Homo sapiens, UniProt P21860)", "remaining binding [%]": 100}
{"target": "TNIK (Homo sapiens, UniProt Q9UKE5)", "remaining binding [%]": 93}
{"target": "EGFR (Homo sapiens, UniProt P00533, L861Q)", "remaining binding [%]": 64}
{"target": "STK3 (Homo sapiens, UniProt Q13188)", "remaining binding [%]": 78}
{"data": "Series 4", "cell line": "mouse MPNST tumor cells", "technique": "high-content immunofluorescence imaging", "measured": "nuclear SOX9", "tested at": "10 µM", "time": "12 h", "notes": "mean of 2 replicates", "reference": "DMSO control", "reading": "higher = more nuclear SOX9"}
{"SMILES": "COc1cc(Oc2ccnc3cc(OC)c(OC)cc23)ccc1NC(=O)NC(C)c1nccs1 (stereo not shown)", "nuclear SOX9 intensity": "109 % of DMSO"}
{"SMILES": "CC(N)CCCC(C)(C)O (stereo not shown)", "nuclear SOX9 intensity": "109 % of DMSO"}
{"SMILES": "Cc1ccc(S(=O)(=O)c2c(C)cc(C)cc2C)cc1", "nuclear SOX9 intensity": "108 % of DMSO"}
{"SMILES": "NC(=O)OCC(COC(N)=O)c1ccccc1", "nuclear SOX9 intensity": "106 % of DMSO and 84.9 % of DMSO and 102 % of DMSO"}
{"SMILES": "Cc1ccc(-c2cc(C(=O)Nc3cccnc3)c3cc(Br)ccc3n2)cc1", "nuclear SOX9 intensity": "95 % of DMSO"}
{"SMILES": "Cc1cc2c(cc1N1C(=O)c3cccc4c(CCCO)ccc(c34)C1=O)n(C)c(=O)n2C", "nuclear SOX9 intensity": "248 % of DMSO and 207 % of DMSO"}
